Results from different studies.
A part holds a random share of what one study measured.

Sample 1
Target: Histone acetyltransferase KAT6A, both winged helices, GST fusion (KAT6A, Homo sapiens, UniProt Q92794, residues 1-181)
Technique: protein binding microarray
Molecule type: double-stranded DNA, one strand shown
Medium: in vitro
Tested at: not given
Notes: 8-mer, flanks averaged, mean of 2 arrays, mostly near background
Baseline: not given
Direction: higher = stronger binding
Target sequence (chain): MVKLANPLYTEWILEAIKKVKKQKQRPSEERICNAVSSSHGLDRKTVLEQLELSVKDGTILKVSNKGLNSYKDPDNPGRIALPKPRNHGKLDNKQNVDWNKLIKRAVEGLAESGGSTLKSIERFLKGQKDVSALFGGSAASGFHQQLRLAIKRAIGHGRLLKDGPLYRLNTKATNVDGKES
Strand | E-score
TAGCCCAA | -0.124
GCTCGGCA | 0.139
GCAACGAA | -0.0404
CGCAGTAG | 0.122
AGGGATTA | -0.163
CGTGACTA | 0.064
ATTCACTG | -0.119
AAGGGTGA | -0.0854
CGCTGTCC | 0.243
ATCTTCAC | -0.0541
CCACTATA | -0.167
ATAAAATG | -0.0184
AATGAAGT | -0.101
GCATGTAA | 0.0537
GGCTGTAA | -0.0666
ATCACGAT | -0.091

Sample 2
Target: Sal-like protein 4, full length isoform B (SALL4, Homo sapiens, UniProt Q9UJQ4-2, residues 1-616)
Technique: universal PBM
Molecule type: double-stranded DNA, one strand shown
Medium: in vitro
Tested at: not given
Notes: 8-mer, flanks averaged, mean of replicates
Direction: higher = stronger binding
Target sequence (chain): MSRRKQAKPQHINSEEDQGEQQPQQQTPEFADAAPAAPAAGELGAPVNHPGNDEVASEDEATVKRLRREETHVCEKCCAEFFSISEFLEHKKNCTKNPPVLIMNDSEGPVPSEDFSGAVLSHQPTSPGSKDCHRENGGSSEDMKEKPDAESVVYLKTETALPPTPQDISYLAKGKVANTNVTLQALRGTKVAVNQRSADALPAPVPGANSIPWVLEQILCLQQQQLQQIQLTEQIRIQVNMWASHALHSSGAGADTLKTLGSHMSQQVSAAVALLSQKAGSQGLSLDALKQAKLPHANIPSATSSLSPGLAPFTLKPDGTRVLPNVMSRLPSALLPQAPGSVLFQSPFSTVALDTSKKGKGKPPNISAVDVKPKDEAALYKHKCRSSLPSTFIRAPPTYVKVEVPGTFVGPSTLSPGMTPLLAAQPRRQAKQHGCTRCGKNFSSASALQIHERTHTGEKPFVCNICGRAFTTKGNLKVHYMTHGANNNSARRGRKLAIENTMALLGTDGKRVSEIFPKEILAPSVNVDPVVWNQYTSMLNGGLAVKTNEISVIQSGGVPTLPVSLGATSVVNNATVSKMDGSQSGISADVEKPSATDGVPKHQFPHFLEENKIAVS
Strand | E-score
ATTCCATA | 0.281
AGACCGCC | -0.145
TGATAACA | 0.294
AAATGAAG | 0.183
CCAAACAG | -0.119
CCTATAGA | 0.0867
AAAGGCCC | -0.168
CATGTAAA | 0.204
TCCTGCGA | -0.139
TGAAGTAA | 0.116
GTCTAGCA | 0.008
CCACTCGA | -0.0796
GTCAGATA | 0.0621
CGATATTA | 0.361
CAACCCGC | -0.223
AGTGAGGG | -0.107
TCTGCTAA | -0.038
GGGTGATA | 0.0443
AGCACATC | -0.0181
AGGCCGAA | -0.127
AGGAGAAT | 0.0466
ATGCCGGC | -0.162
CGACGGAC | -0.242
AACGGGCA | -0.0852
GTAGTCGA | -0.0113

Sample 3
Target: Interferon regulatory factor 5, full length, phosphomimetic (IRF5, Homo sapiens, UniProt Q13568-2, residues 1-514, S451D/S453D/S456D/S462D)
Technique: protein-binding microarray
Molecule type: double-stranded DNA, one strand shown
Medium: in vitro
Tested at: 940 nM top
Notes: 60-bp whole probe
Together with: salmon DNA 0.4 mg/ml
Baseline: random background probes
Direction: higher = stronger binding
Constant ends, left off below: GCCTAGCAC … GTCTTGATTCGCTTGACGCTGCTG
Strand | fitted relative affinity [z-score]
GACGCACTGGGTCTCGGGACGTGCTAG | -0.194
TGAGTTTTCCTTCATGTGCCGTGCTAG | 1.11
TTAGGTTTCGGTACTGGGTTAGTGCTA | 13.2
TCACCGTTTCTTCTAGAACTGTGCTAG | 0.505
CTCGGTTTCCAAATTGTCTCGTGCTAG | 0.814
TTAGGACTGGGGACGGGGTTAGTGCTA | 0.886
GACGACATCGGGTATCGAGACGTGCTA | 0.93
TCATGACTCTTTCTGTCACTGTGCTAG | 0.911
GACGAATTCAGTTCCGAGACGTGCTAG | 0.225
TTAGGTTTCGGGACGGGGTTAGTGCTA | 10.8
TTAGGACTGGGGAATCGGTTAGTGCTA | -0.225
TCATGCATGTTTTTGACACTGTGCTAG | 0.0514
TTAGGCATCCTACTGCTTTAGTGCTAG | -0.169
TCAATATTATATCTGTGACTGTGCTAG | 0.519
TTAGGTCTCGGTACCGGTTAGTGCTAG | 4.68
TTACATATCAGTATCGATTAGTGCTAG | 5.58

Sample 4
Target: Fragile X messenger ribonucleoprotein 1, C-terminal low-complexity region (Fmr1, Mus musculus, UniProt P35922)
Technique: RNA Bind-n-Seq
Molecule type: RNA
Medium: in vitro
Tested at: 200 nM
Notes: whole 134-nt RNA, ends assumed
Together with: 150 mM LiCl
Baseline: input library
Direction: higher = stronger binding
Each molecule: 7-deaza-guanosine replaces G
Constant ends, left off below: GGGAGUUCUACAGUCCGACGAUC … UGGAAUUCUCGGGUGUCAAGG
Strand | log2 enrichment
AAGUCCUGUGCUACACAUCGUAUGUACCGAAUCGGGUUUUGGGUUUUGGUUUUGGGAAAGUAUUAUGUUACGCCGUUCGGAUCUGCACUU | -1.85
CUCAAGUCCUGUGCUACACAUCGUAUGUACCGAAUCGGGGCCGGCCGGCCGGGAAAGUAUUAUGUUACGCCGUUCGGAUCUGCACUUCCA | 1.08
GUCCUGUGCUACACAUCGUAUGUACCGAAUCAAACCCCCCCAAACCCAAACCCCCAAAAAAGUAUUAUGUUACGCCGUUCGGAUCUGCAC | 0.704
CCUGUGCUACACAUCGUAUGUACCGAAUCGGGAAAAAAAGGAAAAAAAGGGAAAAAAAGGGAAAGUAUUAUGUUACGCCGUUCGGAUCUG | -0.154
AGUCCUGUGCUACACAUCGUAUGUACCGAAUCGGAAAAAAAGGAAAAAGGAAAAAGGAAAGUAUUAUGUUACGCCGUUCGGAUCUGCACU | -1.99
CACAGACAACACGCACCCACACAGACACAGAGGGAAGGGGUUGGGAUGGGGACAGGGUGCACAGCAGGGCGGGGUUGGACCCCAGCCCCU | 0.9
CACAGACAACACGCACCCACACAGACACAGAGGGAAGGGGUUGGGAUGGGGACAGGGUGCAAAACAGGGCGGGGUAGGACCCCAGCCCCU | 0.0907
CACAGACAACACGCACCCACACAGACACAGAGGGAAGGGGUUGGCAUGGGGACAGGGUGCACAGCAGGGCGGGGUAGGACCCCAGCCCCU | -0.909
CUCAAGUCCUGUGCUACACAUCGUAUGUACCGAAUCGGUUUGGUUUGGGUUUGGAAAGUAUUAUGUUACGCCGUUCGGAUCUGCACUUCC | -0.327
UGGGAGGUGGAUUUUGUUUAUUUUUUUAGCUCAUUUCCAGGGGUGGGAAUUUUUUUUUAAUAUGUGUCAUGAAUAAAGUUGUUUUGGAAA | 0.0228
CUCAAGUCCUGUGCUACACAUCGUAUGUACCGAAUCGGGUUUGGGUGGGUGGGAAAGUAUUAUGUUACGCCGUUCGGAUCUGCACUUCCA | -0.683

Sample 5
Target: RNA binding protein fox-1 homolog 2, RRM domain, GST-SBP tag (RBFOX2, Homo sapiens, UniProt O43251-10, residues 100-194)
Technique: RNA Bind-n-Seq
Molecule type: RNA
Medium: in vitro
Tested at: 365 nM
Notes: natural RNA segment, single round, ends assumed
Baseline: no-protein control
Direction: higher = stronger binding
Constant ends, left off below: GGGAGUUCUACAGUCCGACGAUC … UGGAAUUCUCGGGUGCCAA
Residues (chain): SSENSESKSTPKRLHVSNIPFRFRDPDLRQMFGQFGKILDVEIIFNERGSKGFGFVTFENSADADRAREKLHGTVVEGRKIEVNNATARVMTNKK
Strand | RBNS enrichment (R)
UGUAAAUUAUUUUGUAUCUGAGAUACCAGUUCCAUUCCCACAUAUGAAAGUAUAAAGGUUUCCUUGUGUUUUUCUGUGAGUGAACAUUUUGUAAUAAAUUAACAAGUUUG | 0.391
CCCAGCUUCCAUCUCAGGAGACCAGAACUCAUGGAAAAAUUAGGCACUUUUGGCUAAAAGUGCGAAUGGAACAUUUUUAGUUGUAGUCUGGGGAAGAAAAGUUAAUGAGG | 1.13
ACUGCAUCCAGCCUGGGGCUGAGGCUGAGGCACUGGCGAGGAGAGGGCGCUCCUCUCUGCACACCUACUAGUCACCAGAGACUUUAGGGGGUGGGAUUCCACUCGUGUGU | 2.28
AGGCCCUGGGCAAAGAAGGGUCUUUCGCAAAGCGAUGUCAGAGGGCGGUUUUGAGCUUUCUAUAAGCUAUAGCUUUGUUUAUUUCACCCGUUCACUUACUGUAUAAUUUA | 0.469
UUGCAACCUAUUUAAUUUUUUUUAAAUGCCUAACUUCUGAGGUGCAUAAGCCCGUGGUUUGUGUACUGGAACUAAAGCGGAACUCACUGAUUCAUAUUGGAUCCCCAGGU | 0.277
GGCCAAAGGUGCAGCAGUGCUUAUCACAUCCACAUACUAAGAGAUUGGUCUUAGUGCGUUUGUGCCCUUUGUUCUGGUCUGACUCUUGCGAAUCUCAGAGCAGGAGAAGU | 0.287
GAUAGGGAUGGUAUGAAAUGCUGCUGGUGGGCUGGUAAAUCCAAAGGGAUAAGGCUUCAGUGCUGUUGGGAGCCCUCUGGCUCCAAAUGUCUGACUAUCUUGAGGGAGAA | 0.592
GGUGGGGUUAAGACCAUUCUUCAGAUGUGGAAAUGAAGGCUCUGGGAGACCACAGGACAUGCCCAAGGCAAAGAGUUGGUAGUCCCUGGAUUUGGGAAUCAAACUCAAGC | 0.685
UGAUUUCUUUCAGCGUUAAAAAGAAACAUAGUGUUGCCCUUUUUCUUAAAGCAUCAGUGAAAUUAUGGAAAAUUACUUAAAACGUGAAUACAUCAUCACAGUAGAAUUUA | 0.367
CAGCAAGAAAGGCCAUGCCACCUGCCCUUGACUACACAGGAACAGUGAACAGCAUUUUCGUUCCUGACCCAAUGAGAAAGAGGCACUCAUCUCUGACCCAAUGAGAAAGA | 4.42
GACCUGAUAAUGUUUCUAAGAAAAAGAAAAAAAGGACAAAAGGGAGGGAACCACUACCAAAAAAAAAAAAAGAAACUCCUCCCCGAAGACACUUUAAUGAAGGAAACAAC | 0.477
AGAUCUACAUACAUGAAGAGCUGAAGAGGUCCCUUCGGUCUCCGCCAGGGAACCUGGUGGGAGGGAGAAAGAUGAGGGGAGGGAGUUUACCUUUUGAUUAGCUGUUGAGG | 0.732

Excerpt of the above (sample 1):
Strand | E-score
AGGGATTA | -0.163
CGTGACTA | 0.064
ATTCACTG | -0.119
AAGGGTGA | -0.0854
CGCTGTCC | 0.243
ATCTTCAC | -0.0541
CCACTATA | -0.167
ATAAAATG | -0.0184
AATGAAGT | -0.101
GCATGTAA | 0.0537
GGCTGTAA | -0.0666
